Assay results gathered from unrelated publications.
Protocols differ between the studies behind these lines. ± gives the spread as reported.
B1: acrA (Escherichia coli, UniProt P0AE06); N-terminal lipid at C25; chain CDDKQAQQGGQQMPAVGVVTVKTEPLQITTELPGRTSAYRIAEVRPQVSGIILKRNFKEGSDIEAGVSLYQIDPATYQATYDSAKGDLAKAQAAANIAQLTVNRYQKLLGTQYISKQEYDQALADAQQANAAVTAAKAAVETARINLAYTKVTSPISGRIGKSNVTEGALVQNGQATALATVQQLDPIYVDVTQSSNDFLRLKQELANGTLKQENGKAKVSLITSDGIKFPQDGTLEFSDVTVDQTTGSITLRAIFPNPDHTLLPGMFVRARLEEGLNPNAILVPQQGVTRTPRGDATVLVVGADDKVETRPIVASQAIGDKWLVTEGLKAGDRVVISGLQKVRPGVQVKAQEVTADNNQQAASGAQPEQSKS
Chain of UniProt Q3KNA1 (whole entry, looked up): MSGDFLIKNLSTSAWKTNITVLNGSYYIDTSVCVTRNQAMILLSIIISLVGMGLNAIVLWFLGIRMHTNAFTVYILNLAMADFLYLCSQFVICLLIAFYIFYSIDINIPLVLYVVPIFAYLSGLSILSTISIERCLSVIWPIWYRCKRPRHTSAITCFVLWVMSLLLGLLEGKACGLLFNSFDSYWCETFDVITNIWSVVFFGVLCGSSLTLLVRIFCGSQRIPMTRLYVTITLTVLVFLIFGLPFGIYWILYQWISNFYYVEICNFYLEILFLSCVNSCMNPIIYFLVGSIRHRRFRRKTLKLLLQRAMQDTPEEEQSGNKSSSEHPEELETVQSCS
Chain of UniProt P31224 (whole entry, unmodified, looked up): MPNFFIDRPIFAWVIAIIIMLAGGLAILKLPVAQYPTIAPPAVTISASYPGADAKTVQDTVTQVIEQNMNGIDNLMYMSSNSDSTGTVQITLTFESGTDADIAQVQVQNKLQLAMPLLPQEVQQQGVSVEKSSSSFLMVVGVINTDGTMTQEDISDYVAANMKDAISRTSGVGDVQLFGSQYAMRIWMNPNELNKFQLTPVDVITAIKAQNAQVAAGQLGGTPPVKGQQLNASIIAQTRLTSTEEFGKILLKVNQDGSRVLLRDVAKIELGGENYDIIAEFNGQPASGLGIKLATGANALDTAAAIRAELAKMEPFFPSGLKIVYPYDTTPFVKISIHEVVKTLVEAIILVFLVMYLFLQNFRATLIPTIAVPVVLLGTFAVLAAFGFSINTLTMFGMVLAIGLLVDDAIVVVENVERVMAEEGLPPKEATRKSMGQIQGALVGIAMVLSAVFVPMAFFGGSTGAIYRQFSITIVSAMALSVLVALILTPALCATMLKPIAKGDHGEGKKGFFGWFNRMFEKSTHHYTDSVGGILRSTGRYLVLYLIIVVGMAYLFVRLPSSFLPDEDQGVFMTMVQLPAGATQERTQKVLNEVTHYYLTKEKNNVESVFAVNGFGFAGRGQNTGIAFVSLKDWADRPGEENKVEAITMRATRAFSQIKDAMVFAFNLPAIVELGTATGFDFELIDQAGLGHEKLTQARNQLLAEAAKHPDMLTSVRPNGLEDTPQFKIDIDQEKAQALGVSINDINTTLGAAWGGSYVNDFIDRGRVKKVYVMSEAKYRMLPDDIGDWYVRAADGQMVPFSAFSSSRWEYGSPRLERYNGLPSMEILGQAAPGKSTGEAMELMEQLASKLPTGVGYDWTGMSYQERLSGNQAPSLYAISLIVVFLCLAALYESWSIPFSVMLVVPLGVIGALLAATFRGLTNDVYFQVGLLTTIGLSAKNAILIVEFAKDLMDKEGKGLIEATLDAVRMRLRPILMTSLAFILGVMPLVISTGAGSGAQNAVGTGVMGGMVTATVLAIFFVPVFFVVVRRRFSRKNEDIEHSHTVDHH
Chain of UniProt P0A4E4 (whole entry, looked up): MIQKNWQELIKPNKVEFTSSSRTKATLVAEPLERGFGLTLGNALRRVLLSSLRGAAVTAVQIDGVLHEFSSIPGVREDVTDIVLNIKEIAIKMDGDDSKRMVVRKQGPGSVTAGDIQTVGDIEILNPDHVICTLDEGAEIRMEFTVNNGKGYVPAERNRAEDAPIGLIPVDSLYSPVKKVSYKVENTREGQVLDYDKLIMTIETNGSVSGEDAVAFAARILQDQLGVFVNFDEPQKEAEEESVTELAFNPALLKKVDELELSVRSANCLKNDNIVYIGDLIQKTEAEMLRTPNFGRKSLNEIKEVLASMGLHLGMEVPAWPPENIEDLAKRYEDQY

| Molecule | partner | test | system | setting | how to read | measurement | result |
| --- | --- | --- | --- | --- | --- | --- | --- |
| traR R75A (Rhizobium radiobacter) | rpoA (Agrobacterium tumefaciens, UniProt P0A4E4) | Class II traG::lacZ reporter | E. coli DH5α | – | reference: wild-type TraR, higher = stronger activation | reporter activation | 38% |
| DLG1 PDZ2 domain (Homo sapiens) | E6 residues 80-151 (Human papillomavirus type 16) | ITC | – | pH 6.50, 20 °C, single-site model | – | Kd | 6600 ± 1000 nM |
| RmS-6, glycosylated (Rhipicephalus microplus) | F12 factor XIIa (Homo sapiens) | chromogenic substrate hydrolysis, inhibitor | – | 1 µM | – | protease inhibition | < 20% |
| gag peptide M6F/I8Y (SHIV) | Mane-A1*082:01 (Macaca nemestrina) | competition with radiolabeled ligand, competitor, radioligand binding | – | added: radiolabeled peptide | – | IC50 | 8.2 nM |
| RmS-3, glycosylated (Rhipicephalus microplus) | F9 factor IXa (Bos taurus) | chromogenic substrate hydrolysis, inhibitor | – | 1 µM | – | protease inhibition | < 20% |
| PLG kringle 2 C4G/E56D/L72Y (Homo sapiens) | PAM 97-145 (Streptococcus pyogenes) | ITC | – | 25 °C | – | Kd | 9 nM |
| B1 (acrA) | acrB C493S/C887S/S1043C (Escherichia coli, UniProt P31224) | SPR | – | pH 6.0, 150 mM NaCl, global fit, Langmuir or two-state | – | Kd | 90 nM |
| RmS-17, glycosylated (Rhipicephalus microplus) | F12 factor XIIa (Homo sapiens) | chromogenic substrate hydrolysis, inhibitor | – | 1 µM | – | protease inhibition | < 20% |
| EMRLSKFFRDFILQRKK (comC mature CSP-1 (Streptococcus pneumoniae, UniProt P60242)) | Mrgprb2 (Mus musculus, UniProt Q3KNA1) | MST | peptide, membranes | – | – | Kd | 70100 ± 3200 nM |

Repeated from above:
| Molecule | partner | test | system | setting | how to read | measurement | result |
| --- | --- | --- | --- | --- | --- | --- | --- |
| RmS-17, glycosylated (Rhipicephalus microplus) | F12 factor XIIa (Homo sapiens) | chromogenic substrate hydrolysis, inhibitor | – | 1 µM | – | protease inhibition | < 20% |
